Experimental data pooled from the literature.
Lines come from different studies, so protocols differ. Values joined by “and” are separate records of one study, mostly repeats; a detail may differ. ± gives the spread as reported.
UniProt Q9NNX6, sequence (whole entry, looked up): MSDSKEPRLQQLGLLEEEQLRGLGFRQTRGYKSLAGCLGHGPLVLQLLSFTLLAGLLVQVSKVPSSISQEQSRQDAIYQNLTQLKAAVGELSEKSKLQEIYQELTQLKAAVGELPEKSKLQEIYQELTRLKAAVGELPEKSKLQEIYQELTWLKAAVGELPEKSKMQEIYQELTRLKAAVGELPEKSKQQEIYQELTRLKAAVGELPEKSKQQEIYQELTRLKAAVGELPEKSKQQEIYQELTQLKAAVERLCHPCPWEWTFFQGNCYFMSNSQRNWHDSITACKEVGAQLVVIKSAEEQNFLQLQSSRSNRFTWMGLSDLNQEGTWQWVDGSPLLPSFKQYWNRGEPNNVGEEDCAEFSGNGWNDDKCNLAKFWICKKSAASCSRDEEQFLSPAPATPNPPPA
UniProt Q15131, sequence (whole entry, looked up): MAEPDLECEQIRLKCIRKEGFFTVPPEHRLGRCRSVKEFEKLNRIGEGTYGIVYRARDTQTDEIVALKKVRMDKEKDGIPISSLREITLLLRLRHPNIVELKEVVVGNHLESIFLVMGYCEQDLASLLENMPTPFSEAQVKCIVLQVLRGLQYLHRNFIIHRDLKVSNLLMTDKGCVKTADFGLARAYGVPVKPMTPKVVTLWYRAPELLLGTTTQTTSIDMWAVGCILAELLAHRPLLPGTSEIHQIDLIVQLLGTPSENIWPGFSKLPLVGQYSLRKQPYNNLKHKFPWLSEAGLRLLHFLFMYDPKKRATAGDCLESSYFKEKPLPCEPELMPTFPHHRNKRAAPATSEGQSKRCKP
UniProt P0A6Y8, sequence (whole entry, looked up): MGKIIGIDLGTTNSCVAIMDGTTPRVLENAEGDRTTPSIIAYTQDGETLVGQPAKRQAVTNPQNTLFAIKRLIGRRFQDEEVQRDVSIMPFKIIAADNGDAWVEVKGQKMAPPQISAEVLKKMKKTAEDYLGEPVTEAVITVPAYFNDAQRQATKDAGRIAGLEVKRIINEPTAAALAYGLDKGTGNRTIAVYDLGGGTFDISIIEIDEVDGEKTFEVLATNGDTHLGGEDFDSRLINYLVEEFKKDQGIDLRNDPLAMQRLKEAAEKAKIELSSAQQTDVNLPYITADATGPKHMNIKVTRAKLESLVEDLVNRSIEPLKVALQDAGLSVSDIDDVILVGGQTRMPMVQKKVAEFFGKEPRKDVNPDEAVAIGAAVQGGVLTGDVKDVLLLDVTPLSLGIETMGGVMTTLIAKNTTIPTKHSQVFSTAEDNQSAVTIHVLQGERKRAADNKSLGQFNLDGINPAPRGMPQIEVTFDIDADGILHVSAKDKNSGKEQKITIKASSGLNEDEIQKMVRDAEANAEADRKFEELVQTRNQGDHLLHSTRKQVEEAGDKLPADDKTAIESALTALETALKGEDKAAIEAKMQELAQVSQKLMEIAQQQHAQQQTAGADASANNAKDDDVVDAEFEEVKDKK
UniProt P08238, sequence (whole entry, looked up): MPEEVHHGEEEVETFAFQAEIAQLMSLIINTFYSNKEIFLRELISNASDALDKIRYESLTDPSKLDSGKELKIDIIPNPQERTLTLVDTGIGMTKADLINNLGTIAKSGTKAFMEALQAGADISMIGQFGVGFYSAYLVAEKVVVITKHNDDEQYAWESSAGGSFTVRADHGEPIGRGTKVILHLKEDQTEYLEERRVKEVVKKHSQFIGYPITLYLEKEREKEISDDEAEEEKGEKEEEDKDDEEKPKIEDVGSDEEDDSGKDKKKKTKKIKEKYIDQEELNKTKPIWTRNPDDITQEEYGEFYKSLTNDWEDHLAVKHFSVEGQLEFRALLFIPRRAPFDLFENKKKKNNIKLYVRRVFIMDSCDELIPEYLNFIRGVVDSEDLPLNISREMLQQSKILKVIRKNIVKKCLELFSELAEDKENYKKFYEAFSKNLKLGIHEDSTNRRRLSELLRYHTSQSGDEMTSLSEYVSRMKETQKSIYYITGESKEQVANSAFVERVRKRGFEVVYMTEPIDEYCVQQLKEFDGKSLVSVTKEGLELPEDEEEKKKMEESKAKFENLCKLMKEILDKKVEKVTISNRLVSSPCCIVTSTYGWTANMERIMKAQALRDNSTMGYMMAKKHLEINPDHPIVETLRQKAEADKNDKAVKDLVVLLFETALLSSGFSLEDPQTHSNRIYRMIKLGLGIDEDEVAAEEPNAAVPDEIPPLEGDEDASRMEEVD
UniProt P01106, sequence (whole entry, looked up): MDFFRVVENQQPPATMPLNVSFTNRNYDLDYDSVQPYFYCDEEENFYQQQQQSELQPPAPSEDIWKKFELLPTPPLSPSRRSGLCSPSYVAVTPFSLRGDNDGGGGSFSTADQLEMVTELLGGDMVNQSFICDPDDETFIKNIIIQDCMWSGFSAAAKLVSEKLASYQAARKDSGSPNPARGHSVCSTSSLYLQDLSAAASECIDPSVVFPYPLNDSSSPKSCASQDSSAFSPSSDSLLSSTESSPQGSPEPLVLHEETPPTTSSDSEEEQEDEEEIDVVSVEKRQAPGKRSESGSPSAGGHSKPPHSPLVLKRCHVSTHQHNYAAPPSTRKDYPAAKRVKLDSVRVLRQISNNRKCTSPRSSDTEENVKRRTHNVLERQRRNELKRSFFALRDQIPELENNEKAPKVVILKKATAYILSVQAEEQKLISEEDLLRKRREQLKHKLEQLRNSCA
UniProt Q9UKE5, sequence (whole entry, looked up): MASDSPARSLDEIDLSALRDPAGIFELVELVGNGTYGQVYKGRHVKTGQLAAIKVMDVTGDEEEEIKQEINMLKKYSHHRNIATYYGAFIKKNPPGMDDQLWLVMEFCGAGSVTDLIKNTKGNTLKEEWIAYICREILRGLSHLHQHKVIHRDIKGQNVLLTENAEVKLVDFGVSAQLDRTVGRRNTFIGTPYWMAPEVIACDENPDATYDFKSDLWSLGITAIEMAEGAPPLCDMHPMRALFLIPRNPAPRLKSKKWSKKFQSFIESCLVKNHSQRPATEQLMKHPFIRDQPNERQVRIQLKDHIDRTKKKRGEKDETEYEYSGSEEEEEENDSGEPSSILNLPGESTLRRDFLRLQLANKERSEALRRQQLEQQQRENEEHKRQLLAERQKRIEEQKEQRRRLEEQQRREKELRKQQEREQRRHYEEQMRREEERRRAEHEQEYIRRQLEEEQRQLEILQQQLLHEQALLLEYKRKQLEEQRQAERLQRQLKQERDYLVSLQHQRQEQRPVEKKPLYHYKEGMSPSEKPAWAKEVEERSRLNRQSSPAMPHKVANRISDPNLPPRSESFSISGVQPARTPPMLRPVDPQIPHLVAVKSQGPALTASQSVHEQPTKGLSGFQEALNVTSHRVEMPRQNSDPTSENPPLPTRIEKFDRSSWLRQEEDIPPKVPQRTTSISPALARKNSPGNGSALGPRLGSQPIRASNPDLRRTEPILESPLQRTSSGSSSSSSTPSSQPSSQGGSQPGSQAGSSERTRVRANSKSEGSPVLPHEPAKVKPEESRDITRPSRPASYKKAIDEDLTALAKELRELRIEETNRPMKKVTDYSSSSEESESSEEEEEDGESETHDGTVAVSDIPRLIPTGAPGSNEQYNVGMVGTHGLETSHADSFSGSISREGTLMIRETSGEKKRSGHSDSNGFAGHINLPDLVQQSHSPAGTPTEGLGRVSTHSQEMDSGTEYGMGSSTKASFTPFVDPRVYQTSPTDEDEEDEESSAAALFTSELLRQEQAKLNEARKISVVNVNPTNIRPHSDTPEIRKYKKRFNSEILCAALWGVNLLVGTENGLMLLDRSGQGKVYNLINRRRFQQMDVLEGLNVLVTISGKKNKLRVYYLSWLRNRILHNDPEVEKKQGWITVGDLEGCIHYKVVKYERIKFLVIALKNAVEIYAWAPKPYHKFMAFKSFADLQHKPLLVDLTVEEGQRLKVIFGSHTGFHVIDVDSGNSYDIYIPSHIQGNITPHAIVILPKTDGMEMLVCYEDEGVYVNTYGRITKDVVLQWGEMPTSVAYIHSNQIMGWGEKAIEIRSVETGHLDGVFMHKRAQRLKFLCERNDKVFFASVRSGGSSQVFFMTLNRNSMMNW
UniProt P0A6G7, sequence (whole entry, looked up): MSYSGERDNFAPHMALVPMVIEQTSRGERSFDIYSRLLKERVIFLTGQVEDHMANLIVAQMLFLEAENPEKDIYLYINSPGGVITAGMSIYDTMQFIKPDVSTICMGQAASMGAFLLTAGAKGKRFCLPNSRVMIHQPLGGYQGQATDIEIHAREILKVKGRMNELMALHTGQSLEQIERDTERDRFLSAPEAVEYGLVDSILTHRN
UniProt Q9HB29, sequence (whole entry, looked up): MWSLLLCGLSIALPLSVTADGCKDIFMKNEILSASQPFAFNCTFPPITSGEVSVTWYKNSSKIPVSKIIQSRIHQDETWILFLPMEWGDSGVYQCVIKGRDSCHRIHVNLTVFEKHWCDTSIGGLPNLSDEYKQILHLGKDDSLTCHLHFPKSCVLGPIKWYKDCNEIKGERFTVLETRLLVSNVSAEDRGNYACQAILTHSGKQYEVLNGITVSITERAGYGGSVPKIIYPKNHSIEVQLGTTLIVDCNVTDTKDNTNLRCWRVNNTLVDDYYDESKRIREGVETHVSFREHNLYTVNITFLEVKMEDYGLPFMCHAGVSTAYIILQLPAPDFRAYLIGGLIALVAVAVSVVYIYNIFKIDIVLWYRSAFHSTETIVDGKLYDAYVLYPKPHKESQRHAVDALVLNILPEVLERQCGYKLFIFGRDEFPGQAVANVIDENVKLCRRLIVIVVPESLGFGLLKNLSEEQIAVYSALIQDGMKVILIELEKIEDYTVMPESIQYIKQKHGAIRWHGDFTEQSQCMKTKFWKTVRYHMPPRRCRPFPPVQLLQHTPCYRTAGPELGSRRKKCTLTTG

SMILES | tested on | assay | test system | conditions | quantity | result
CN(C)[C@H]1C[C@@]23CC[C@@]4(O2)C(=CC[C@]2(C)[C@@H](c5ccc6ccncc6c5)CC[C@H]24)C=C3[C@@H](O)[C@@H]1O | CDK10 (Homo sapiens, UniProt Q15131) | ATP probe labelling, inhibitor, KiNativ profiling |  | 1 µM | inhibition | 3.9%
CC(C)[C@@H]1NC(=O)[C@H](Cc2ccccc2)NC(=O)CSC[C@@H](C(N)=O)NC(=O)[C@H](CCC(=O)O)NC(=O)[C@H](CO)NC(=O)[C@H](Cc2c[nH]c3cccc(Cl)c23)NC(=O)[C@H](C(C)C)NC(=O)[C@H](C(C)C)NC(=O)[C@H](Cc2ccc(O)cc2)NC(=O)[C@H](CC(=O)O)NC(=O)[C@H](Cc2c[nH]c3ccccc23)NC(=O)[C@H](Cc2ccc(O)cc2)NC(=O)[C@H](Cc2c[nH]c3ccccc23)NC(=O)[C@H](CCC(=O)O)NC1=O | Interleukin-1 receptor-like 2, D1-D2 domains (IL1RL2, Homo sapiens, UniProt Q9HB29) | SPR |  | IL-36R domains D1-D2 | Kd | 0.106 ± 0.005 µM
CCCc1cc2cc(-n3nc(C)c4c3CC3(CCC3)CC4=O)cc(N3CCC(O)CC3)c2c(=O)[nH]1 | HSP90AB1 (Homo sapiens, UniProt P08238) | fluorescence polarization |  | 24 h, 4 °C, with: FITC-geldanamycin tracer | Kd | 0.318 µM
C=C(c1ccccc1)[C@@H](N)P(=O)(O)O | PAL1 (Petroselinum crispum, UniProt P24481, Y110F) | ITC |  |  | Kd | 0.17 µM
CC(C)(C)C(=O)OCOP(=O)(OCOC(=O)C(C)(C)C)C1CCCN(O)C1=O (stereo not shown) | SNB-75 |  |  |  | TGI | 28.6 µM
O=C1NC2(CC2)COc2ncc(F)cc2[C@H]2COCCN2c2ccn3ncc1c3n2 |  |  | Sprague-Dawley rat, female, serum | oral, 20 mg/kg/day, end of recovery, 4-week subacute toxicity | serum LDH activity | 894 ± 397 U/L
CC[C@H](C)[C@H](NC(=O)[C@H](CC(=O)O)NC(=O)[C@H](CCCNC(=N)N)NC(=O)[C@H](C)NC(=O)c1ccc2c(c1)C(=O)OC21c2ccc(N(C)C)cc2Oc2cc(N(C)C)ccc21)C(=O)N[C@@H](Cc1c[nH]cn1)C(=O)N[C@@H](Cc1c[nH]cn1)C(=O)N[C@H](C(=O)N[C@@H](CC(=O)O)C(=O)N[C@@H](Cc1ccc(O)cc1)C(=O)N[C@@H](Cc1ccc(OP(=O)(O)O)cc1)C(=O)N[C@@H](CCCCN)C(=O)N[C@@H](CCCCN)C(=O)N[C@H](C(=O)N[C@H](C(=O)N[C@@H](CC(N)=O)C(=O)NCC(=O)N[C@@H](CCCNC(=N)N)C(=O)N[C@@H](CC(=O)O)C(=O)O)[C@@H](C)O)[C@@H](C)O)[C@@H](C)CC | Tyrosine-protein kinase ABL2, SH2 domain (ABL2, Homo sapiens, UniProt P42684) | binding |  |  | Kd | 1.32 µM
C(#C[P+](c1ccccc1)(c1ccccc1)c1ccccc1)c1ccccc1 | dnaK, substrate-binding domain (Escherichia coli, UniProt P0A6Y8) | ITC |  | 42 °C, fragment residues 393-507 | Kd | ~41 µM
CCCC/C=C/C(=O)N[C@@H](Cc1cc(F)cc(F)c1)C(=O)N[C@H]1COC(=O)[C@@H]2CCCN2C(=O)[C@H](C)NC(=O)[C@@H]2C[C@@H](C(C)C)CCN2C(=O)[C@@H]2CCCN2C1=O | clpP (Escherichia coli, UniProt P0A6G7) | peptidase activity, activator |  | 30 °C, with: fluorogenic decapeptide 15 µM | Kd | 7.4 ± 0.31 µM
CS(C)(=O)=Nc1ccc(-c2ccc(-c3nc4cc(O[C@@H]5CO[C@H]6[C@@H]5OC[C@H]6O)[nH]c4cc3F)cc2)cc1 | MELK (Homo sapiens, UniProt Q14680) | enzyme activity, inhibitor |  | 10 µM | inhibition | 3%
NCc1cn([C@@H]2[C@@H](OCCn3cc(-c4cc(OCCOCCO)c(C#Cc5cc(OCCOCCO)c(C#Cc6cc(OCCOCCO)c(-c7cn(CCO[C@H]8O[C@H](CO)[C@@H](O)[C@H](O)[C@@H]8n8cc(CN)nn8)nn7)cc6OCCOCCO)cc5OCCOCCO)cc4OCCOCCO)nn3)O[C@H](CO)[C@@H](O)[C@@H]2O)nn1 | CD209 antigen (CD209, Homo sapiens, UniProt Q9NNX6) |  |  |  | Kd | 28.8 µM and 38.5 µM
CC[C@H](C)[C@H](NC(=O)[C@H](CCC(=O)O)NC(=O)[C@H](C)NC(=O)[C@H](CCCCN)NC(=O)[C@H](CC(C)C)NC(=O)[C@@H](NC(=O)[C@H](CCC(=O)O)NC(=O)[C@@H](NC(=O)[C@H](CCC(=O)O)NC(=O)[C@H](CC(=O)O)NC(=O)[C@H](C)NC(C)=O)[C@@H](C)O)C(C)C)C(=O)N[C@H]1CSCc2cccc(c2)CSC[C@@H](C(=O)N[C@@H](CCC(N)=O)C(=O)N[C@H](C(=O)N[C@@H](CCC(N)=O)C(=O)N[C@@H](CCC(=O)O)C(=O)NCCC(=O)N[C@@H](CCCCNC(=O)CCCC[C@@H]2SC[C@@H]3NC(=O)N[C@@H]32)C(N)=O)C(C)C)NC(=O)[C@H](C(C)C)NC(=O)[C@H](C)NC(=O)[C@H](CCCCN)NC1=O | MYC (Homo sapiens, UniProt P01106) | binding, BLI |  |  | Kd | 6.01 µM
C=C1NC(=O)C(=C)NC(=O)[C@H](CCCCN)NC(=O)[C@H](CC(C)C)NC(=O)[C@H]([C@@H](C)O)NC(=O)[C@H](CCCCN)NC(=O)[C@H](Cc2ccc(O)cc2)NC(=O)[C@H]([C@@H](C)CC)NC(=O)[C@H](Cc2ccccc2)NC(=O)CNC(=O)[C@H](Cc2c[nH]c3ccccc23)NC(=O)c2ccc(-c3nc(C(=O)OC)cs3)nc2-c2csc(n2)C(=C)NC(=O)CNC1=O | TNIK (Homo sapiens, UniProt Q9UKE5) | binding, SPR |  |  | Kd | 0.006 µM

Repeated from above:
SMILES | tested on | assay | test system | conditions | quantity | result
CN(C)[C@H]1C[C@@]23CC[C@@]4(O2)C(=CC[C@]2(C)[C@@H](c5ccc6ccncc6c5)CC[C@H]24)C=C3[C@@H](O)[C@@H]1O | CDK10 (Homo sapiens, UniProt Q15131) | ATP probe labelling, inhibitor, KiNativ profiling |  | 1 µM | inhibition | 3.9%
